{"data": "Experimental data of several laboratories", "note": "Numbers after ± are the reported error."}
{"SMILES": "COc1ccc2c(c1)CN(C(=O)CCN1CCC(Cc3ccccc3)CC1)CC[S@@+]2[O-]", "test": "telemetry", "test system": "conscious dog", "conditions": "intravenous, 4 mg/kg, 24 h", "measurement": "heart rate", "result": "71 ± 4 beats/min"}
{"SMILES": "CSc1ccccc1C(=O)NCCn1cc(C(=O)NCc2cccc(C)n2)c(=O)c2cc3c(cc21)OC(F)(F)O3", "test system": "Sprague-Dawley rat, male, plasma", "conditions": "intramuscular, 10 mg/kg of parent compound", "measurement": "AUC(0-t)", "result": "80.4 ± 16.2 ng·h/mL"}
{"SMILES": "COc1cc2nccc(Oc3ccc(NC(=O)c4cc5c(n(-c6ccccc6)c4=O)CCCC5=O)nc3)c2cc1OC", "test system": "relapsed or refractory AML", "conditions": "oral, all dose levels", "measurement": "grade ≥3 Hypophosphatemia patients", "result": "15%"}
{"SMILES": "C=CC(=O)Nc1cc(Nc2nccc(-c3cn(C)c4ccccc34)n2)c(OC)cc1N(C)CCN(C)C", "test": "storage stability", "test system": "human plasma", "conditions": "10 d, -80 °C, LLOQ level", "measurement": "recovery", "result": "92.9%"}
{"SMILES": "O=S(=O)(c1ccc(-c2ccc3nccc(Nc4ccncn4)c3c2)cc1)N1CCOCC1", "test system": "female BALB/c mouse", "conditions": "intraperitoneal, 10 mg/kg", "how to read": "baseline: brain over plasma", "measurement": "tissue/plasma ratio", "result": 0.04}
{"SMILES": "CCCCCCCOc1ccc(CCC(N)(CO)CO)cc1C(F)(F)F.Cl", "test system": "healthy men", "conditions": "oral, 0.5 mg, day 21", "measurement": "renal clearance", "result": "0.143 mL/min"}
{"SMILES": "CCO[C@H]1CCN(Cc2c(OC)cc(C)c3[nH]ccc23)[C@H](c2ccc(C(=O)O)cc2)C1", "test system": "human severe hepatic impairment, plasma", "conditions": "oral, 200 mg single dose, median", "measurement": "total half-life", "result": "25.9 h"}
{"SMILES": "CC(C)n1c(Nc2cccnc2)nc2cnc(Nc3ccc(N4CCN(C)CC4)cc3)nc21", "test": "refers to: LDL cholesterol increased", "test system": "healthy male subjects", "conditions": "oral, 100 mg, study, with: gemfibrozil", "measurement": "subjects with adverse event", "result": "7.1%"}
{"SMILES": "CC(C)(C(=O)N1CCOc2c(C#N)cncc2C1)C(F)F", "test system": "healthy humans, both sexes, plasma", "conditions": "oral, 40 mg single dose, 2-fold dose increase", "how to read": "baseline: 40 mg over 20 mg", "measurement": "AUClast dose proportionality ratio", "result": 2.16}
{"SMILES": "COc1ccc([C@@H](O)c2cc(-c3ncnc4cc(N5CCOCC5)ccc34)c(F)cc2Cl)nn1", "test system": "locally advanced rectal cancer patients", "conditions": "250 mg, with: capecitabine and radiotherapy", "measurement": "nausea TEAE incidence", "result": "33%"}
{"SMILES": "CC[C@H](C)[C@H](NC(=O)[C@H](Cc1ccccc1)NC(=O)[C@H](CCC(=O)O)NC(=O)[C@H](CCCCNC(=O)COCCOCCNC(=O)COCCOCCNC(=O)CC[C@H](NC(=O)CCCCCCCCCCCCCCCCC(=O)O)C(=O)O)NC(=O)[C@H](C)NC(=O)[C@H](C)NC(=O)[C@H](CCC(N)=O)NC(=O)CNC(=O)[C@H](CCC(=O)O)NC(=O)[C@H](CC(C)C)NC(=O)[C@H](Cc1ccc(O)cc1)NC(=O)[C@H](CO)NC(=O)[C@H](CO)NC(=O)[C@@H](NC(=O)[C@H](CC(=O)O)NC(=O)[C@H](CO)NC(=O)[C@@H](NC(=O)[C@H](Cc1ccccc1)NC(=O)[C@@H](NC(=O)CNC(=O)[C@H](CCC(=O)O)NC(=O)C(C)(C)NC(=O)[C@@H](N)Cc1cnc[nH]1)[C@@H](C)O)[C@@H](C)O)C(C)C)C(=O)N[C@@H](C)C(=O)N[C@@H](Cc1c[nH]c2ccccc12)C(=O)N[C@@H](CC(C)C)C(=O)N[C@H](C(=O)N[C@@H](CCCNC(=N)N)C(=O)NCC(=O)N[C@@H](CCCNC(=N)N)C(=O)NCC(=O)O)C(C)C", "test": "12-lead Holter ECG", "test system": "healthy humans", "conditions": "subcutaneous, 1.5 mg once weekly, 12 h, steady state", "how to read": "baseline: placebo", "measurement": "QTcB change from baseline", "result": "7.9 ms"}
{"SMILES": "COc1cc(N2CCC(N3CCN(C)CC3)CC2)ccc1Nc1ncc(Cl)c(Nc2ccccc2S(=O)(=O)C(C)C)n1", "test system": "CD1 nude mouse", "conditions": "oral, 20 days", "measurement": "MTD", "result": "10 mg/kg"}
{"SMILES": "O=C(O)CCCOc1ccc([18F])cc1-c1cc(-c2ccccc2C(F)(F)F)n(-c2ccccc2)n1", "test": "gamma counting", "test system": "male ddY mice, heart", "conditions": "intravenous, 2.1 MBq, 30 min", "measurement": "radioactivity uptake", "result": "10.2 ± 2.73 SUV"}
{"SMILES": "CNCc1ccc(-c2[nH]c3cc(F)cc4c3c2CCNC4=O)cc1", "test system": "patients", "conditions": "oral, 840 mg twice daily, all grades", "measurement": "any adverse event incidence", "result": "100%"}
{"SMILES": "O=C(N[C@H](Cc1c[nH]c2ccccc12)C(=O)Nc1ccncc1)c1ccc(-c2ccc(F)c(C(F)(F)F)c2)cc1F", "test system": "Swiss Webster mouse, female, fat", "conditions": "oral, 50 mg/kg, 2 h, 20% HPβCD vehicle", "measurement": "concentration", "result": "80 nM"}
{"SMILES": "C#Cc1cccc(Nc2ncnc3cc(OCCOC)c(OCCOC)cc23)c1", "test system": "human, plasma", "conditions": "oral, 50 mg, day 1", "measurement": "V/F", "result": "147 ± 73 L"}
{"SMILES": "COc1ccc2c(=O)n(C)c(-c3ccccc3)nc2c1", "test system": "Sprague-Dawley rat, male, stomach", "conditions": "oral, 30 mg/kg, 0.25 h", "how to read": "baseline: stomach over plasma", "measurement": "tissue/plasma ratio", "result": 731}
{"SMILES": "O=C(COc1ccc(Cl)cc1)NC12CC(c3nnc([C@H]4C[C@@H](OC(F)(F)F)C4)o3)(C1)C2", "test": "refers to: Fatigue", "test system": "human", "conditions": "28 (unit not given)", "measurement": "adverse event incidence", "result": "31.6%"}
{"note": "Some of these lines once more:"}
{"SMILES": "COc1ccc([C@@H](O)c2cc(-c3ncnc4cc(N5CCOCC5)ccc34)c(F)cc2Cl)nn1", "test system": "locally advanced rectal cancer patients", "conditions": "250 mg, with: capecitabine and radiotherapy", "measurement": "nausea TEAE incidence", "result": "33%"}
{"SMILES": "O=C(COc1ccc(Cl)cc1)NC12CC(c3nnc([C@H]4C[C@@H](OC(F)(F)F)C4)o3)(C1)C2", "test": "refers to: Fatigue", "test system": "human", "conditions": "28 (unit not given)", "measurement": "adverse event incidence", "result": "31.6%"}
